Measurements pooled from the literature.
Compare with care: the assays were run in different laboratories. Values joined by “and” are separate records of one study, mostly repeats; a detail may differ. ± marks the error that the study gave.

With O=C(N/N=C/c1cc[n+](Cc2ccccc2)c2ccccc12)N/N=C/c1cc[n+](Cc2ccccc2)c2ccccc12 the ΔTm was 1 ± 0.1 °C (hp2 hairpin duplex DNA; FRET melting; 1 µM, together with: ds26 10 µM).
C/C=C(/C)C(=O)OC[C@H]1[C@@H](Cc2ccc(C(C)(C)C)cc2)CO[C@@H]1c1ccc(OC)c(OC)c1 has an IC50 of ≥ 20 µM (NF-κB; reporter gene; HEK293/NF-κB-luc; 4 h, together with: TNFα 2 ng/mL).
CCCCCCc1cccc(C(O)CC(CO)NC(=O)CCCCCCCCCCNC(C)=O)c1 (stereo not drawn) has a sphingomyelin level of 98600 pmol/sample and 114000 pmol/sample and 74800 pmol/sample (CERT; HPLC-MS/MS, measured: SM 24:1; HeLa; 1 µM, 24 h).
The ΔTm of O=C(N/N=C/c1cc[n+](CC2CC2)c2ccccc12)c1cccc(C(=O)N/N=C/c2cc[n+](CC3CC3)c3ccccc23)c1 is reported as 0.7 ± 0.1 °C (hp2 hairpin duplex DNA; FRET melting; 1 µM, together with: ds26 10 µM).
With C=CC(=O)N1[C@@H](c2ccc3c(c2)OCO3)c2[nH]c3ccccc3c2C[C@H]1C(=O)N1CCN(C)CC1 the relative co-enrichment was 114% (human cyclin E1 N112C-3xFLAG:CDK2; co-IP with TMT proteomics, measured: NUP98; concentration not given, P52948; reference: wild type DMSO).
Cc1[nH]nc2c1N=C(c1ccccc1Cl)c1cnc(N3CCOCC3)cc1N2 gave an inhibition of 4% (androgen receptor, human; radioligand binding; 10 µM, together with: testosterone).
The ΔTm of O=C(N/N=C/c1ccc2c(ccc[n+]2Cc2ccccc2)c1)c1cccc(C(=O)N/N=C/c2ccc3c(ccc[n+]3Cc3ccccc3)c2)n1 is reported as 2.2 ± 0.4 °C (hp2 hairpin duplex DNA; FRET melting; 1 µM, together with: ds26 10 µM).
With CC(=O)NCCN(CC(=O)NCCN(CC(=O)NCCN(CC(=O)NCCC(N)=O)C(=O)C[C@@H](N)Cc1ccccc1)C(=O)C[C@@H](N)CCCNC(=N)N)C(=O)C[C@@H](N)CCCNC(=N)N the melting temperature was 61 ± 0.1 °C (HIV-1 TAR RNA; RNA thermal stability, UV melting; 1 µM, pH 7.5, together with: 1 µM TAR RNA).
For CC(=O)NCC1CCCCN1c1nc(NCC2Cc3ccccc3O2)nc(N2CC3C(CCOc4cc(-c5scnc5C)ccc4CNC(=O)C4CC(O)CN4C(=O)C(NC(=O)C4(F)CC4)C(C)(C)C)C3C2)n1 (stereo not drawn), the cooperativity alpha was 219 (VHL-elongin C-elongin B and BRD9; SPR; immobilized VHL-elongin C-elongin B; reference: binary KD over ternary KD).
With O=C(N/N=C/c1cc[n+](CC2CC2)c2ccccc12)N/N=C/c1cc[n+](CC2CC2)c2ccccc12 the ΔTm was 1.8 ± 0.4 °C (hp2 hairpin duplex DNA; FRET melting; 1 µM).
C=CC(=O)Nc1cccc(Cn2ncc3cnc(Nc4cnn(CCOC)c4)nc32)c1: “percent of control” 100% (AKT2 human; binding, KINOMEscan; 100 nM; lower = stronger binding).
With CNC(NN=Cc1ccc([N+](=O)[O-])o1)=[S+][Au-][Cl] the log KSV was 4.3 (calf thymus DNA; ethidium bromide displacement, fluorescence quenching; up to 50 µM).
For O=C(N/N=C/c1ccc2c(ccc[n+]2Cc2ccccc2)c1)c1ccc2ccc3ccc(C(=O)N/N=C/c4ccc5c(ccc[n+]5Cc5ccccc5)c4)nc3c2n1, the ΔTm was 0.5 ± 0.4 °C (hp2 hairpin duplex DNA; FRET melting; 1 µM, together with: ds26 10 µM).
c1ccc(-c2n[nH]cc2-c2ccnc3ccccc23)nc1 — result for “log2 fold change”: 0.24 (RIO2 (Candida albicans); kinase binding, MIB/MS competition; Candida albicans lysate; 10 µM; reference: DMSO).
O=C(N/N=C/c1cc[n+](Cc2ccccc2)c2ccccc12)c1cc(C(=O)N/N=C/c2cc[n+](Cc3ccccc3)c3ccccc23)ncn1 has a ΔTm of 6.2 ± 0.6 °C (MYC parallel G4 DNA; FRET melting; 1 µM, DNA 0.2 µM).
For Nc1ncc(-c2cc(-c3cnn(CC(F)(F)F)c3)ncc2F)nc1C(=O)NC1CNCC(F)C1 (stereo not drawn), the remaining binding was 83% (TXK; KINOMEscan; 1 µM; reference: DMSO control).
The IC50 of CCCCCC(O)/C=C/C=O (stereo not drawn) is reported as 96 µM and 87 µM and 98 µM and 76 µM and 124 µM and 68 µM and 102 µM (proteome cysteines; IA-probe labelling, competitive isoTOP-ABPP; MDA-MB-231 proteome).
For Fc1ccc(Nc2nc(NC3CCCCC3)c3cc(Br)ccc3n2)cc1F, the pIC50 was 7 (β2AR/β1AR ECL2/3 chimera; β-arrestin2 recruitment, antagonist, BRET; together with: isoprenaline 1 µM).
CCCCCCCCCCCC(=O)N[C@@H](CO)C[C@@H](O)c1cccc(CCCCCC)c1 gave a sphingomyelin level of 128000 pmol/sample and 89200 pmol/sample and 98000 pmol/sample (CERT; HPLC-MS/MS, measured: SM 24:1; HeLa; 1 µM, 24 h).
With C[n+]1ccc(/C=N/NC(=O)c2ccc3ccc4ccc(C(=O)N/N=C/c5cc[n+](C)cc5)nc4c3n2)cc1 the ΔTm was 6.9 ± 0.3 °C (MYC parallel G4 DNA; FRET melting; 1 µM, DNA 0.2 µM, together with: duplex DNA competitor 10 µM).
Cc1ncsc1-c1ccc(CNC(=O)[C@@H]2C[C@@H](O)CN2C(=O)[C@@H](NC(=O)C2(F)CC2)C(C)(C)C)c(OCCC2CN(c3nc(NCC(C)(C)C4(O)CCOC4)nc(N4CCC[C@H]4Cn4ccnn4)n3)C2)c1 (stereo partly drawn) gave a cooperativity alpha of 5 (VHL-elongin C-elongin B and BRD9; SPR; immobilized VHL-elongin C-elongin B; reference: binary KD over ternary KD).

Excerpt of the above:
With C[n+]1ccc(/C=N/NC(=O)c2ccc3ccc4ccc(C(=O)N/N=C/c5cc[n+](C)cc5)nc4c3n2)cc1 the ΔTm was 6.9 ± 0.3 °C (MYC parallel G4 DNA; FRET melting; 1 µM, DNA 0.2 µM, together with: duplex DNA competitor 10 µM).
Cc1ncsc1-c1ccc(CNC(=O)[C@@H]2C[C@@H](O)CN2C(=O)[C@@H](NC(=O)C2(F)CC2)C(C)(C)C)c(OCCC2CN(c3nc(NCC(C)(C)C4(O)CCOC4)nc(N4CCC[C@H]4Cn4ccnn4)n3)C2)c1 (stereo partly drawn) gave a cooperativity alpha of 5 (VHL-elongin C-elongin B and BRD9; SPR; immobilized VHL-elongin C-elongin B; reference: binary KD over ternary KD).
